{"data": "Measured values of several laboratories", "note": "Parts stem from different laboratories: compare values within a part only. “And” joins repeats or separate records; there may be more than shown.", "UniProt P42336, sequence (whole entry, unmodified, looked up)": "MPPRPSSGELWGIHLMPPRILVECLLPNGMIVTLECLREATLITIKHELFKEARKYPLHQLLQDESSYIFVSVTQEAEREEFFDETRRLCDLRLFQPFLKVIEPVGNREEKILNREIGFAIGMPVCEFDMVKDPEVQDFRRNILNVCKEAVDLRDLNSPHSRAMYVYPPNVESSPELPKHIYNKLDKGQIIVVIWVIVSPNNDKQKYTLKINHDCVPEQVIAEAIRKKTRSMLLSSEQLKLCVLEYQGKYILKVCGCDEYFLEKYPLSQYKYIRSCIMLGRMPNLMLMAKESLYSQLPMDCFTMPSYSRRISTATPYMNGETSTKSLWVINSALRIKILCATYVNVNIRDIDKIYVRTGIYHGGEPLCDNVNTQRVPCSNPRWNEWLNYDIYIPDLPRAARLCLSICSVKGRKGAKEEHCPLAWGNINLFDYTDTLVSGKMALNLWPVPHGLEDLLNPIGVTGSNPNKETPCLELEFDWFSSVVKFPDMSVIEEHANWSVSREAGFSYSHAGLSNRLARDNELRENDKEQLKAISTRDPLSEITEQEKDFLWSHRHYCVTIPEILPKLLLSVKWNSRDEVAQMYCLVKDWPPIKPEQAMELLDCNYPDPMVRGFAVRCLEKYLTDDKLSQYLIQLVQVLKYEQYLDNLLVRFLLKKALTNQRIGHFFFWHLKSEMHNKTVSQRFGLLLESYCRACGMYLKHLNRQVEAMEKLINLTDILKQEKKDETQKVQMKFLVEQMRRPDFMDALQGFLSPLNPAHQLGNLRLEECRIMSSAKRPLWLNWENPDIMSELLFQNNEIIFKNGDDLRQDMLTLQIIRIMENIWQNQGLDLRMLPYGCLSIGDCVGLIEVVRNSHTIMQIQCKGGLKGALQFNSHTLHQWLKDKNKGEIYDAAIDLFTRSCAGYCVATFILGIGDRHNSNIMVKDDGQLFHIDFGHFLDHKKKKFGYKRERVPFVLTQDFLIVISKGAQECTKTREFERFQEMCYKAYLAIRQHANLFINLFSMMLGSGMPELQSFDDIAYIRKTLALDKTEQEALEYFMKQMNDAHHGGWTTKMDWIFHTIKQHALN", "UniProt P11802, sequence (whole entry, looked up)": "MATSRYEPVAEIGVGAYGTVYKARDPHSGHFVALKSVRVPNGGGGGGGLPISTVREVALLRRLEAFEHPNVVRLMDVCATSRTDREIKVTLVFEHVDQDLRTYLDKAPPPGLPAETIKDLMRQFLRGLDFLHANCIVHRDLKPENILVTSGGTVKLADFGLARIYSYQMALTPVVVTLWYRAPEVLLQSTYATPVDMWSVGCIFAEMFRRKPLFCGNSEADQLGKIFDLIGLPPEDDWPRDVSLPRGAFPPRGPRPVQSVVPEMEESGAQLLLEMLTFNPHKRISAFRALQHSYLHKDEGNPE", "UniProt Q06418, sequence (whole entry, looked up)": "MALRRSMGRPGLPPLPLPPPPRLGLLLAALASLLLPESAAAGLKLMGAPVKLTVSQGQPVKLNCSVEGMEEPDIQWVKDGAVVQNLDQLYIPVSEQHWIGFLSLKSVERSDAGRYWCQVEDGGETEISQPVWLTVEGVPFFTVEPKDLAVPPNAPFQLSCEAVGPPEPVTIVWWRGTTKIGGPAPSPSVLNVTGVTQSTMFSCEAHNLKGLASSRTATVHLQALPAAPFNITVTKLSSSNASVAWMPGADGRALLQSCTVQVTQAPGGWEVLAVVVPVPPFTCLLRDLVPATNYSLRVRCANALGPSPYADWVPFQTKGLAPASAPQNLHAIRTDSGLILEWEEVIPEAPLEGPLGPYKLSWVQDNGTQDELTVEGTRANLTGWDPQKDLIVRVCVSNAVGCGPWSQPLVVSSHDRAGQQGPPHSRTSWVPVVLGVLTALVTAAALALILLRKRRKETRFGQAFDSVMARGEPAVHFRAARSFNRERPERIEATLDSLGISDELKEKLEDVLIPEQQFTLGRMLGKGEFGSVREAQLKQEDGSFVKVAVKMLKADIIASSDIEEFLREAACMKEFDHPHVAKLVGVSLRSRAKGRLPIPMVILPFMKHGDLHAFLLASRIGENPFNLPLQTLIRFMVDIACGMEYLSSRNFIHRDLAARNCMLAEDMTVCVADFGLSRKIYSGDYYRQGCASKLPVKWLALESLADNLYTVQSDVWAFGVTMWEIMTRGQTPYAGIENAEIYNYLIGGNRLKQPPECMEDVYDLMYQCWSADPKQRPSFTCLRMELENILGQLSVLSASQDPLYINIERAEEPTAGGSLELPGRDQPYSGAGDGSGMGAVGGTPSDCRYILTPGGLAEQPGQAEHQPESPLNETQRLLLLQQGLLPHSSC", "UniProt P53355, sequence (whole entry, looked up)": "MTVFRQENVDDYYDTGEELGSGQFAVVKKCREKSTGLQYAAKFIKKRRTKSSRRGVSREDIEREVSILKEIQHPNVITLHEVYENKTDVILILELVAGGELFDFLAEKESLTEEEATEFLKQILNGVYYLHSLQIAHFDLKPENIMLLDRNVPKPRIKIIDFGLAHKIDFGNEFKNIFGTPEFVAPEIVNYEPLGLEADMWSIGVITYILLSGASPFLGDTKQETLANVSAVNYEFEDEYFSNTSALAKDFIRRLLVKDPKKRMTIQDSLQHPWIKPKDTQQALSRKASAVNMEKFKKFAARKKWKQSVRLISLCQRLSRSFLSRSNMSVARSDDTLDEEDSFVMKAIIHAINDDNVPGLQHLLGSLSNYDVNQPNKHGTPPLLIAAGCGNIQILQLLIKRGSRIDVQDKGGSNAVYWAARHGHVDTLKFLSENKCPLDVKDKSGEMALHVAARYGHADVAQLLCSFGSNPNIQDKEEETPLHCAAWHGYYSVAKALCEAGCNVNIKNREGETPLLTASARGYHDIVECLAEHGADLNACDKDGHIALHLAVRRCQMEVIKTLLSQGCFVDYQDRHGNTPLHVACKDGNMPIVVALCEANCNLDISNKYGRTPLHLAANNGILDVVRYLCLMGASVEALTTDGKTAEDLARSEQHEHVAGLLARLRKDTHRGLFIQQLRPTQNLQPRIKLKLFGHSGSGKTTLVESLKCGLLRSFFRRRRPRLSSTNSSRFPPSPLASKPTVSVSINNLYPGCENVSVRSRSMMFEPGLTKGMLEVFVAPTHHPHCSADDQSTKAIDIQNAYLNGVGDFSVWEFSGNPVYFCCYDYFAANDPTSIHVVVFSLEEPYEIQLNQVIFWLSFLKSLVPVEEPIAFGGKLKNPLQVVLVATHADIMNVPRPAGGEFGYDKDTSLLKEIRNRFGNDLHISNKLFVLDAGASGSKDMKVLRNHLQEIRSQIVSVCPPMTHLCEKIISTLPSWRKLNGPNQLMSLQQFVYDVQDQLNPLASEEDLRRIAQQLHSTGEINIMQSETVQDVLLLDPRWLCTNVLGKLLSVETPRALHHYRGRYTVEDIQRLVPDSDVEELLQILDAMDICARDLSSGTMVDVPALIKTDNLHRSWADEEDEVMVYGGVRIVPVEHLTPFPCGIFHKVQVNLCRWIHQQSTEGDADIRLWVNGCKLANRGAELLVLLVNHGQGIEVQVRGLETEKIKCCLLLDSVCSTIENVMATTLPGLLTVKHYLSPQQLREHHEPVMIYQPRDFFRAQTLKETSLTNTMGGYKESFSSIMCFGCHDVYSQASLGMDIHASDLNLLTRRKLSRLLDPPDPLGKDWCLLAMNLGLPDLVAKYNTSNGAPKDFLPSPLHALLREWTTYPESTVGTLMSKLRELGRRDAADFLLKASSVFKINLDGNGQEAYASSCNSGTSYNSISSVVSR", "UniProt P21127, sequence (whole entry, looked up)": "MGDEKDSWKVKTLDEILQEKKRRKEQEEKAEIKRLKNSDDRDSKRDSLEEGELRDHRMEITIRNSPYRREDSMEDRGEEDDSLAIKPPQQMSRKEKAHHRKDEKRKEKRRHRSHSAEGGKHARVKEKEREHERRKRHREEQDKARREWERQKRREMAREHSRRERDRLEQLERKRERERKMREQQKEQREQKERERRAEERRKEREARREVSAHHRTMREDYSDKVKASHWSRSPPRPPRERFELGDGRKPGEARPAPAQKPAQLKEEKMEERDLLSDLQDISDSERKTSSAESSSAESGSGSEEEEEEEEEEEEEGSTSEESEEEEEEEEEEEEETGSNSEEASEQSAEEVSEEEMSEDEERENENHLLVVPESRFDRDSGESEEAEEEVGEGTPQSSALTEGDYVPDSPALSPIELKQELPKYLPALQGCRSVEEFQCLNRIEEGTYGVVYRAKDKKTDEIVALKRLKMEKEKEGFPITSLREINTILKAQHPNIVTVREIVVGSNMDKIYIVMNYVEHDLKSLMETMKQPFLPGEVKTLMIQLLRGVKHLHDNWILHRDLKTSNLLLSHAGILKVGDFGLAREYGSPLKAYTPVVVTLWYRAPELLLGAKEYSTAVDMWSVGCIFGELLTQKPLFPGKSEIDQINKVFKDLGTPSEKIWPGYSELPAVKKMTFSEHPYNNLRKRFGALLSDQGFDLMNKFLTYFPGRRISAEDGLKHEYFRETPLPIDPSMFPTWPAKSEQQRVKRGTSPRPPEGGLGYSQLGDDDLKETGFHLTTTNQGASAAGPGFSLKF"}
{"data": "Series 1", "cell line": "mouse MPNST tumor cells", "technique": "high-content immunofluorescence imaging", "item": "nuclear SOX9", "concentration": "10 µM", "time": "12 h", "setting": "mean of 2 replicates", "relative to": "DMSO control", "direction": "higher = more nuclear SOX9"}
{"SMILES": "OCCn1cc(-c2ccc3c(c2)CC/C3=N\\O)c(-c2ccncc2)n1", "nuclear SOX9 intensity": "45.7 % of DMSO"}
{"SMILES": "Cc1ccc(O)c([C@H](CCN(C(C)C)C(C)C)c2ccccc2)c1", "nuclear SOX9 intensity": "143 % of DMSO and 147 % of DMSO"}
{"SMILES": "Cc1ccccc1C(=O)Nc1ccc(C(=O)N2CCCC(O)c3cc(Cl)ccc32)c(C)c1 (stereo not shown)", "nuclear SOX9 intensity": "93.5 % of DMSO and 91.9 % of DMSO and 90 % of DMSO"}
{"SMILES": "Cc1cc(C(C)Nc2ccccc2)c2nc(N3CCOCC3)cc(=O)n2c1 (stereo not shown)", "nuclear SOX9 intensity": "86.6 % of DMSO"}
{"SMILES": "C[N+]1(CCCCC[N+]2(C)CCCC2)CCCC1", "nuclear SOX9 intensity": "100 % of DMSO and 94.8 % of DMSO"}
{"SMILES": "CCN1CCCC1CNC(=O)c1cc(S(=O)(=O)CC)c(N)cc1OC (stereo not shown)", "nuclear SOX9 intensity": "102 % of DMSO"}
{"SMILES": "Cc1cccc(-c2[nH]c(C(C)(C)C)nc2-c2ccc3nccnc3c2)n1", "nuclear SOX9 intensity": "80.1 % of DMSO"}
{"SMILES": "CNC(=O)c1ccc2c(c1)CCO[C@H]2CCN1CCN(c2ccc(C(N)=O)cc2)CC1", "nuclear SOX9 intensity": "97 % of DMSO"}
{"SMILES": "N[C@H](C(=O)O)[C@H](OCc1cccc(NC(=O)c2ccc(C(F)(F)F)cc2)c1)C(=O)O", "nuclear SOX9 intensity": "95.2 % of DMSO"}
{"SMILES": "COc1ccc(S(=O)(=O)N2C(=O)[C@@](c3ccccc3OC)(N3C[C@H](O)C[C@H]3C(=O)N(C)C)c3cc(Cl)ccc32)c(OC)c1", "nuclear SOX9 intensity": "110 % of DMSO"}
{"SMILES": "CN(C)CCC(c1ccc(Cl)cc1)c1ccccn1 (stereo not shown)", "nuclear SOX9 intensity": "111 % of DMSO"}
{"SMILES": "Clc1cccc(Cl)c1CSc1nnc(-c2cnccn2)s1", "nuclear SOX9 intensity": "153 % of DMSO"}
{"SMILES": "Cn1c(=O)c2nc[nH]c2n(C)c1=O", "nuclear SOX9 intensity": "94.1 % of DMSO and 104 % of DMSO"}
{"data": "Series 2", "SMILES": "Cc1nc(C2CCN(C(=O)c3ccc(OC(F)(F)F)cc3N)CC2)c2ncc(N3CCN(C)CC3)cc2n1", "observed": "cell-free assay", "technique": "competition with immobilised ligand", "concentration": "1 µM"}
{"target": "SYK (Homo sapiens, UniProt P43405)", "remaining binding [%]": 98}
{"target": "PRKACA (Homo sapiens, UniProt P17612)", "remaining binding [%]": 100}
{"target": "EGFR (Homo sapiens, UniProt P00533, L858R/T790M)", "remaining binding [%]": 88}
{"target": "PIK3CB (Homo sapiens, UniProt P42338)", "remaining binding [%]": 94}
{"target": "ABL2 (Homo sapiens, UniProt P42684)", "remaining binding [%]": 93}
{"target": "MERTK (Homo sapiens, UniProt Q12866)", "remaining binding [%]": 87}
{"target": "PIK3CA (Homo sapiens, UniProt P42336, E545A)", "remaining binding [%]": 79}
{"target": "EIF2AK2 (Homo sapiens, UniProt P19525)", "remaining binding [%]": 95}
{"target": "PRPF4B (Homo sapiens, UniProt Q13523)", "remaining binding [%]": 96}
{"target": "CDK11B (Homo sapiens, UniProt P21127)", "remaining binding [%]": 87}
{"target": "BUB1 (Homo sapiens, UniProt O43683)", "remaining binding [%]": 96}
{"target": "MAP4K1 (Homo sapiens, UniProt Q92918)", "remaining binding [%]": 96}
{"target": "Cyclin-dependent kinase 4, with cyclin D3 (CDK4, Homo sapiens, UniProt P11802)", "remaining binding [%]": 100}
{"target": "PIK3CA (Homo sapiens, UniProt P42336, E545K)", "remaining binding [%]": 85}
{"target": "ANKK1 (Homo sapiens, UniProt Q8NFD2)", "remaining binding [%]": 81}
{"target": "SGK2 (Homo sapiens, UniProt Q9HBY8)", "remaining binding [%]": 94}
{"target": "CAMK2D (Homo sapiens, UniProt Q13557)", "remaining binding [%]": 100}
{"target": "TEK (Homo sapiens, UniProt Q02763)", "remaining binding [%]": 81}
{"target": "IKBKE (Homo sapiens, UniProt Q14164)", "remaining binding [%]": 97}
{"target": "Tyrosine-protein kinase ABL1, phosphorylated (ABL1, Homo sapiens, UniProt P00519)", "remaining binding [%]": 92}
{"target": "LATS1 (Homo sapiens, UniProt O95835)", "remaining binding [%]": 78}
{"target": "FLT3 (Homo sapiens, UniProt P36888, R834Q)", "remaining binding [%]": 100}
{"target": "TYRO3 (Homo sapiens, UniProt Q06418)", "remaining binding [%]": 100}
{"target": "DAPK1 (Homo sapiens, UniProt P53355)", "remaining binding [%]": 95}
{"target": "WEE2 (Homo sapiens, UniProt P0C1S8)", "remaining binding [%]": 100}
{"data": "Series 3", "cell line": "Huh-7", "concentration": "10 µM", "time": "24 h"}
{"SMILES": "CO[C@@]1(NC(=O)CSCC#N)C(=O)N2C(C(=O)O)=C(CSc3nnnn3C)CS[C@@H]21", "viability [%]": 102}
{"SMILES": "O=C(O)c1cc(=O)c2c(OCC(O)COc3cccc4oc(C(=O)O)cc(=O)c34)cccc2o1", "viability [%]": 103}
{"SMILES": "N[C@@H](C(=O)N[C@@H]1C(=O)N2C(C(=O)O)=C(Cl)CS[C@H]12)c1ccccc1", "viability [%]": 100}
{"SMILES": "CCCCCCCCCCCCCCCC(=O)O[C@@H]1[C@@H](O)[C@@H](O)[C@@H]([C@H](NC(=O)[C@@H]2C[C@@H](CCC)CN2C)[C@H](C)Cl)O[C@@H]1SC", "viability [%]": 100}
{"SMILES": "C1CCN2C[C@@H]3C[C@@H](CN4CCCC[C@@H]34)[C@H]2C1", "viability [%]": 98.4}
{"SMILES": "OCCc1ccccc1", "viability [%]": 98.6}
{"SMILES": "CC(=O)NCCCS(=O)(=O)O", "viability [%]": 100}
{"SMILES": "N[C@@H](Cc1c[nH]c2ccccc12)C(=O)O", "viability [%]": 103}
{"SMILES": "COc1ccc2cc([C@H](C)CO)ccc2c1", "viability [%]": 94.9}
{"SMILES": "NNc1nncc2ccccc12", "viability [%]": 101}
{"SMILES": "CC1=C(/C=C/C(C)=C/C=C/C(C)=C/C=C/C=C(C)/C=C/C=C(C)/C=C/C2=C(C)CCCC2(C)C)C(C)(C)CCC1", "viability [%]": 104}
{"SMILES": "O=C1O[C@H]([C@@H](O)CO)C(O)=C1O", "viability [%]": 98.5}
{"SMILES": "CC1(C)O[C@@H]2C[C@H]3[C@@H]4CCC5=CC(=O)C=C[C@]5(C)[C@H]4[C@@H](O)C[C@]3(C)[C@]2(C(=O)CO)O1", "viability [%]": 89.3}
{"SMILES": "O=C1C(O)=C(O)C(=O)C(O)=C1O", "viability [%]": 94.6}
{"data": "Series 4", "target": "Proto-oncogene tyrosine-protein kinase Src (SRC, Homo sapiens, UniProt P12931)", "observed": "enzyme activity", "mode": "inhibitor", "concentration": "0.5 µM", "relative to": "control"}
{"SMILES": "N#CC(c1ccnc(NCCc2cccnc2)n1)c1nc2ccccc2s1 (stereo not shown)", "remaining activity [%]": 86.8}
{"SMILES": "NC(=O)c1cccc(-c2cc(Nc3ccc(OC(F)(F)F)cc3)ncn2)c1", "remaining activity [%]": 97}
{"SMILES": "CNc1cc2c(Nc3cccc(Br)c3)ncnc2cn1", "remaining activity [%]": 94.6}
{"SMILES": "COc1cc2c(N3CCN(C(=O)Nc4ccc(OC(C)C)cc4)CC3)ncnc2cc1OCCCN1CCCCC1", "remaining activity [%]": 102}
{"SMILES": "NC(=O)c1ccc(-c2nc(-c3ccc4c(c3)OCCO4)c(-c3ccccn3)[nH]2)cc1", "remaining activity [%]": 91.1}
{"SMILES": "CCCCc1c(-c2ccc(O)cc2)[nH]c2nccnc12", "remaining activity [%]": 65.2}
{"SMILES": "O=c1c(-c2ccc(F)cc2)c(-c2ccncc2)[nH]n1-c1ccc(Cl)cc1", "remaining activity [%]": 91.6}
{"SMILES": "FC(F)(F)c1ccc(/C=C/c2nc(COc3ccc(CCCCn4ccnn4)cc3)co2)cc1", "remaining activity [%]": 92.5}
{"SMILES": "Clc1ccc(Nc2nnc(Cc3ccncc3)c3ccccc23)cc1", "remaining activity [%]": 104}
{"SMILES": "O=Nc1c(-c2c(O)[nH]c3ccccc23)[nH]c2ccccc12", "remaining activity [%]": 65.1}
{"SMILES": "N#C/C(=C(/N)SC1C=CC=CC1)c1cccc(C(O)c2ccncc2)c1 (stereo not shown)", "remaining activity [%]": 93.1}
{"SMILES": "CC(C)N(CCC(=O)c1ccc2ccccc2c1)Cc1ccccc1", "remaining activity [%]": 93.2}
{"SMILES": "CCN(CC)CCCCN1c2ccccc2Oc2ccc(Cl)cc21", "remaining activity [%]": 106}
{"SMILES": "O=C(O)/C=C/c1cc(Br)c(Br)c(Br)c1Br", "remaining activity [%]": 88.8}
{"SMILES": "CC(C)(C)c1nc2c3cc[nH]c(=O)c3c3cc(F)ccc3c2[nH]1", "remaining activity [%]": 93.4}
{"SMILES": "O=C1c2ccccc2-c2nc3nnnn3nc21", "remaining activity [%]": 80.4}
{"SMILES": "O=C(c1ccccc1)c1ccc(N2CCOCC2)cc1O", "remaining activity [%]": 97.8}
{"SMILES": "Nc1nc(Nc2ccc(S(N)(=O)=O)cc2)nn1C(=S)Nc1c(F)cccc1F", "remaining activity [%]": 41.6}
{"SMILES": "c1cc(-c2cnn3cc(-c4ccc(OCCN5CCCCC5)cc4)cnc23)ccn1", "remaining activity [%]": 5.82}
{"SMILES": "O=C1NC(=O)/C(=C/c2ccc3c(c2)OC(F)(F)O3)S1", "remaining activity [%]": 98.4}
{"SMILES": "C[C@@H](N)[C@H]1CC[C@H](C(=O)Nc2ccncc2)CC1", "remaining activity [%]": 107}
{"note": "A few entries again (series 2):"}
{"target": "PIK3CA (Homo sapiens, UniProt P42336, E545K)", "remaining binding [%]": 85}
{"target": "ANKK1 (Homo sapiens, UniProt Q8NFD2)", "remaining binding [%]": 81}
{"target": "SGK2 (Homo sapiens, UniProt Q9HBY8)", "remaining binding [%]": 94}
{"target": "CAMK2D (Homo sapiens, UniProt Q13557)", "remaining binding [%]": 100}
{"target": "TEK (Homo sapiens, UniProt Q02763)", "remaining binding [%]": 81}
{"target": "IKBKE (Homo sapiens, UniProt Q14164)", "remaining binding [%]": 97}
{"target": "Tyrosine-protein kinase ABL1, phosphorylated (ABL1, Homo sapiens, UniProt P00519)", "remaining binding [%]": 92}
{"target": "LATS1 (Homo sapiens, UniProt O95835)", "remaining binding [%]": 78}
{"target": "FLT3 (Homo sapiens, UniProt P36888, R834Q)", "remaining binding [%]": 100}
{"target": "TYRO3 (Homo sapiens, UniProt Q06418)", "remaining binding [%]": 100}
{"target": "DAPK1 (Homo sapiens, UniProt P53355)", "remaining binding [%]": 95}
{"target": "WEE2 (Homo sapiens, UniProt P0C1S8)", "remaining binding [%]": 100}
